Published values from different studies.
Numbers after ± are the reported error.
Organism: Trypanosoma brucei rhodesiense

`O=C(Nc1ccc2c(c1)CN(c1ccccc1)C2=O)N1CC[C@H](F)C1` gave an IC50 of greater than 64000 nM (parasite growth, resazurin; STIB-900; 3 d).
`CCOC(=O)C(CC)NC(=O)CN1C(=O)S/C(=C\c2ccc(OC)cc2)C1=O` (centres unmarked) has an IC50 of greater than 58000 nM (cell viability; IL1501; 72 h).
`O=C(Nc1ccc2c(c1)CN(c1ccc(Br)cc1)C2=O)N1CCN(c2ccc(F)cc2)CC1` gave an IC50 of 50 nM (cell growth, resazurin; STIB-900; 3 days).
With `CCOC(=O)C(CC)NC(=O)CN1C(=O)S/C(=C\c2ccc([N+](=O)[O-])cc2)C1=O` (centres unmarked) the IC50 was greater than 66000 nM (cell viability; IL1501; 72 h).
With `Cc1ccc(/C=N/N=C/c2ccc([N+](=O)[O-])o2)cc1` the IC50 was 3710 ± 1300 nM (parasite growth, CellTiter-Glo; IL1501 bloodstream form; 72 h).
The IC50 of `O=C(Nc1ccc2c(c1)CN(c1ccc(Cl)cc1)C2=O)N1CC[C@H](F)C1` is reported as greater than 64000 nM (parasite growth, resazurin; STIB-900; 3 d).
`O=C(Nc1cc2nc(-c3ccc(F)c(F)c3)c(CO)n2cn1)N1CC[C@H](F)C1` gave an IC50 of 1060 nM (parasite growth; STIB900; 3 days).
`O=[N+]([O-])c1ccc(/C=N/N=C/c2ccc(F)cc2)s1` gave an IC50 of 590 ± 70 nM (parasite growth, CellTiter-Glo; IL1501 bloodstream form; 72 h).
The IC50 of `CCOC(=O)C(CC)NC(=O)CN1C(=O)S/C(=C\c2ccc(C)cc2)C1=O` (centres unmarked) is reported as greater than 59000 nM (cell viability; IL1501; 72 h).
`O=[N+]([O-])c1ccc(/C=N/N=C/c2ccc([N+](=O)[O-])o2)cc1` has an IC50 of 1310 ± 40 nM (parasite growth, CellTiter-Glo; IL1501 bloodstream form; 72 h).
The IC50 of `Cc1ccc(N2Cc3cc(NC(=O)N4CCN(c5cccc(C(F)(F)F)c5)CC4)ccc3C2=O)cc1` is reported as 40 nM (cell growth, resazurin; STIB-900; 3 days).
`Cc1ccc(/C=N/N=C/c2ccc([N+](=O)[O-])s2)cc1` gave an IC50 of 2070 ± 990 nM (parasite growth, CellTiter-Glo; IL1501 bloodstream form; 72 h).
`CCOC(=O)C(NC(=O)CN1C(=O)/C(=C/c2ccc3c(c2)OCO3)SC1=S)C(C)C` (centres unmarked) has an IC50 of greater than 69000 nM (cell viability; IL1501; 72 h).
With `O=C(Nc1cc2nc(-c3ccc(F)c(F)c3)cn2cn1)N1CC[C@H](F)C1` the IC50 was 110 nM (parasite growth; STIB900; 3 days).

Excerpt of the above:
`O=C(Nc1cc2nc(-c3ccc(F)c(F)c3)c(CO)n2cn1)N1CC[C@H](F)C1` gave an IC50 of 1060 nM (parasite growth; STIB900; 3 days).
